Results from different studies.
Protocols differ between the studies behind these lines. “And” joins repeats or separate records; there may be more than shown. ± marks the error that the study gave.
Organism: Schistosoma mansoni

CC1(CNc2nc(-c3cccs3)nc(Cl)c2-c2c(F)cc(F)cc2F)COC1 — EC50 (worm motility; adult worms ex vivo; 24 h): 1.24 µM
CN1CCN(S(=O)(=O)c2ccc(-c3ccc4c(Nc5cnccn5)cnnc4c3)cc2)CC1 — phenotypic severity score (adult worms; 10 µM, 5 h; direction not given): 0
CC(C)(C)CNc1nc(-c2cccs2)nc(Cl)c1-c1c(F)cc(N)cc1F — EC50 (worm motility; adult worms ex vivo; 24 h): < 0.3 µM
CC1(C)NC(=O)N(c2ccc(F)c(S(C)(=O)=O)c2)C1=O — worm burden reduction (NMRI mice, infected; oral, 100 mg/kg single dose, 21 days post-treatment, treated day 49 post-infection): 0%
CC1=C(Cn2cc(CN3CCNCC3)nn2)C(=O)c2ccccc2C1=O — killing (adult worms; 25 µM, 72 h): 62.5%
O=C(C1CCCCC1)N1CC(=O)N2CCc3ccccc3C2C1 (racemic) — worm burden (infected mice; intraperitoneal, 50 mg/kg 1 times daily for 3 days, dosed 7 weeks post-infection): 18 ± 11 worms
O=C(C1CCOCC1)N1CC(=O)N2CCc3ccccc3[C@@H]2C1 — EC50 (adult worms; 4 h): 1.55 µM
CC(C)[C@@H](C)Nc1nc(-c2cccs2)nc(Cl)c1-c1ccc(F)cc1 — EC50 (worm motility; adult worms ex vivo; 24 h): 5 µM
CC1=C(Cn2cnc([N+](=O)[O-])n2)C(=O)c2ccccc2C1=O — killing (adult worms; 25 µM, 72 h): 51.9%
CN1CCN(c2ncc(-c3ccc4c(Nc5ncccn5)cnnc4c3)cn2)CC1 — phenotypic severity score (adult worms; 10 µM, 1 h; direction not given): 0
CC1=C(Cn2cncn2)C(=O)c2ccccc2C1=O — killing (adult worms; 10 µM, 72 h): 50%
Fc1cc(F)c(-c2c(Cl)nc(-c3cccs3)nc2N2CCOC2)c(F)c1 — EC50 (worm motility; adult worms ex vivo; 24 h): > 5 µM
Cc1ccc(Nc2cnnc3ccc(-c4ccc(N5CCCN(C)CC5)cc4)cc23)cn1 — phenotypic severity score (adult worms; 10 µM, 1 h; direction not given): 0
CC(C)[C@@H](C)Nc1nc(-c2cccs2)nc(Cl)c1-c1cc(F)cc(F)c1 — EC50 (worm motility; adult worms ex vivo; 24 h): 5 µM
CC1(C)NC(=O)N(c2ccc(F)c(Br)c2)C1=O — worm burden reduction (NMRI mice, infected; oral, 100 mg/kg single dose, 21 days post-treatment, treated day 49 post-infection): 89%
CN1CCN(S(=O)(=O)c2ccc(-c3ccc4nncc(Nc5ncccn5)c4c3)cc2)CC1 — phenotypic severity score (adult worms; 10 µM, 1 h; direction not given): 0
CC1=C(Cn2cc(CN3CCN(C(=O)OC(C)(C)C)CC3)nn2)C(=O)c2ccccc2C1=O — killing (adult worms; 25 µM, 48 h): 45.5%
Cc1ccc(Nc2cnnc3ccc(-c4ccc(S(=O)(=O)N5CCN(C)CC5)cc4)cc23)cn1 — phenotypic severity score (adult worms; 10 µM, 5 h; direction not given): 0
CC1(CNc2nc(-c3cccs3)nc(Cl)c2-c2c(F)cc(N)cc2F)COC1 — EC50 (worm motility; adult worms ex vivo; 24 h): < 0.3 µM
CC1=C(Cn2cc(CO)nn2)C(=O)c2ccccc2C1=O — killing (adult worms; 25 µM, 48 h): 56.2%
Fc1cc(F)c(-c2c(Cl)nc(-c3cccs3)nc2N2CCCC2)c(F)c1 — EC50 (worm motility; adult worms ex vivo; 24 h): > 5 µM
COc1ccc(Nc2cnnc3cc(-c4cnc(N5CCN(C)CC5)nc4)ccc23)cc1Cl — phenotypic severity score (adult worms; 10 µM, 5 h; direction not given): 1
CC1=C(Cn2cc([Si](C)(C)C)nn2)C(=O)c2ccccc2C1=O — killing (adult worms; 25 µM, 24 h): 50.9%
CN1CCN(c2ccc(-c3ccc4c(Nc5ncccn5)cnnc4c3)cc2)CC1 — phenotypic severity score (adult worms; 10 µM, 48 h; direction not given): 0
O=C(C1CCCCC1)N1CC(=O)N2CCc3ccccc3C2C1 (centres unmarked) — worm burden reduction (NSG mouse; oral, 400 mg/kg single dose): 83%
CC1(C)NC(=O)N(c2ccc(F)c(C(F)(F)F)c2F)C1=O — worm burden reduction (adult, infected mice; oral, 50 mg/kg single dose): 65%
CC1=C(Cc2cn(CCOS(=O)(=O)c3ccc(C)cc3)nn2)C(=O)c2ccccc2C1=O — killing (adult worms; 10 µM, 48 h): 35.6%
O=C1NC2(CCS(=O)(=O)CC2)C(=O)N1c1ccc(F)c(C(F)(F)F)c1 — worm burden reduction (NMRI mice, infected; oral, 100 mg/kg single dose, 21 days post-treatment, treated day 49 post-infection): 27%
CNCCCOc1cc(F)c(-c2c(Cl)nc(-c3cccs3)nc2N[C@H](C)C(C)C)c(F)c1 — EC50 (worm motility; adult worms ex vivo; 24 h): > 5 µM
CC1(C(F)F)NC(=O)N(c2ccc(F)c(C(F)(F)F)c2)C1=O (centres unmarked) — worm burden reduction (NMRI mice, infected; oral, 100 mg/kg single dose, 21 days post-treatment, treated day 49 post-infection): 92%
COc1ccc(Nc2cnnc3cc(-c4ccc(S(=O)(=O)N5CCN(C)CC5)cc4)ccc23)cc1Cl — phenotypic severity score (adult worms; 10 µM, 1 h; direction not given): 1
Cc1cc(N2C(=O)NC(C)(C)C2=O)cc(C(F)(F)F)n1 — worm burden reduction (NMRI mice, infected; oral, 100 mg/kg single dose, 21 days post-treatment, treated day 49 post-infection): 21%
O=C(C1CCCCC1)N1CC(=O)N2CCc3ccccc3C2C1 (centres unmarked) — female worms recovered (mice; 100 mg/kg daily x4, dosed day 7, perfused 49): 5 worms per mouse and 8 worms per mouse and 11 worms per mouse and 7 worms per mouse
CC1(C(F)(F)F)NC(=O)N(c2ccc(F)c(C(F)(F)F)c2)C1=O (centres unmarked) — worm burden reduction (juvenile, infected mice; oral, 50 mg/kg single dose): 7.1%
CC1=C(Cc2cn(Cc3ccccc3)nn2)C(=O)c2ccccc2C1=O — killing (adult worms; 10 µM, 24 h): 50%

Repeated from above:
CC(C)[C@@H](C)Nc1nc(-c2cccs2)nc(Cl)c1-c1cc(F)cc(F)c1 — EC50 (worm motility; adult worms ex vivo; 24 h): 5 µM
CC1(C)NC(=O)N(c2ccc(F)c(Br)c2)C1=O — worm burden reduction (NMRI mice, infected; oral, 100 mg/kg single dose, 21 days post-treatment, treated day 49 post-infection): 89%
CN1CCN(S(=O)(=O)c2ccc(-c3ccc4nncc(Nc5ncccn5)c4c3)cc2)CC1 — phenotypic severity score (adult worms; 10 µM, 1 h; direction not given): 0
CC1=C(Cn2cc(CN3CCN(C(=O)OC(C)(C)C)CC3)nn2)C(=O)c2ccccc2C1=O — killing (adult worms; 25 µM, 48 h): 45.5%
